Experimental data of several laboratories.
Lines come from different studies, so protocols differ. ± gives the spread as reported.
Chain of UniProt P00691 (whole entry, looked up): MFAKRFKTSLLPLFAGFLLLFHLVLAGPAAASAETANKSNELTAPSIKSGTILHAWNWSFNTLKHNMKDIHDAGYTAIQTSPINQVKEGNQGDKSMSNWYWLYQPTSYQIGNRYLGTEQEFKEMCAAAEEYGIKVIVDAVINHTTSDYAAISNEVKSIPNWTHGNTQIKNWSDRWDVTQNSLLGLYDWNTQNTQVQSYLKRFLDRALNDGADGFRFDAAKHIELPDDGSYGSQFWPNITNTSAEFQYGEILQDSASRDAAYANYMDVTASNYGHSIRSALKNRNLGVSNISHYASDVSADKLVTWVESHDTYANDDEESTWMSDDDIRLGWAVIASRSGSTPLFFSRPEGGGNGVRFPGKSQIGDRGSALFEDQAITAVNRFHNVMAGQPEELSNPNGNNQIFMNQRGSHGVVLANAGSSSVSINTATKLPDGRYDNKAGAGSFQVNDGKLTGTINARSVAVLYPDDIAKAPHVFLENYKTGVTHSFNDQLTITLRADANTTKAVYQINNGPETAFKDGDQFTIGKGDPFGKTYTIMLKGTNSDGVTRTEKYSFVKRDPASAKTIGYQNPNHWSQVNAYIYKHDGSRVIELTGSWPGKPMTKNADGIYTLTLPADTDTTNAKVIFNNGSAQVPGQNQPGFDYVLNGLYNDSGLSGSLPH
Chain of UniProt P22629 (whole entry, looked up): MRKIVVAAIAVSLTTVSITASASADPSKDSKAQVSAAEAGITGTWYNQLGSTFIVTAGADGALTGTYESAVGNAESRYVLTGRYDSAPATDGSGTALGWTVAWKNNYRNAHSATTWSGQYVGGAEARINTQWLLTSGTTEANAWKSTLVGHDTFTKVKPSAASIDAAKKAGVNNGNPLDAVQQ
Chain of UniProt Q15759 (whole entry, looked up): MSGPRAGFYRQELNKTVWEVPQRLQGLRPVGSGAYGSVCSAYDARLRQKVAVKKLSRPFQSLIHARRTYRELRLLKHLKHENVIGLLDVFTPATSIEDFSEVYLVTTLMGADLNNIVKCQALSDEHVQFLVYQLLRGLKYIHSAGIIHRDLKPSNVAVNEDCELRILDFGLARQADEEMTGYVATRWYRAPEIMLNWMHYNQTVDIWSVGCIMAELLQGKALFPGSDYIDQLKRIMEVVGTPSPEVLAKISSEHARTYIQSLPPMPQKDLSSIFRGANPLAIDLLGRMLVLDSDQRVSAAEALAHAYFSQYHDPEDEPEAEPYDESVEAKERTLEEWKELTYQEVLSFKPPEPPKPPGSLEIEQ
Chain of UniProt P22607 (whole entry, looked up): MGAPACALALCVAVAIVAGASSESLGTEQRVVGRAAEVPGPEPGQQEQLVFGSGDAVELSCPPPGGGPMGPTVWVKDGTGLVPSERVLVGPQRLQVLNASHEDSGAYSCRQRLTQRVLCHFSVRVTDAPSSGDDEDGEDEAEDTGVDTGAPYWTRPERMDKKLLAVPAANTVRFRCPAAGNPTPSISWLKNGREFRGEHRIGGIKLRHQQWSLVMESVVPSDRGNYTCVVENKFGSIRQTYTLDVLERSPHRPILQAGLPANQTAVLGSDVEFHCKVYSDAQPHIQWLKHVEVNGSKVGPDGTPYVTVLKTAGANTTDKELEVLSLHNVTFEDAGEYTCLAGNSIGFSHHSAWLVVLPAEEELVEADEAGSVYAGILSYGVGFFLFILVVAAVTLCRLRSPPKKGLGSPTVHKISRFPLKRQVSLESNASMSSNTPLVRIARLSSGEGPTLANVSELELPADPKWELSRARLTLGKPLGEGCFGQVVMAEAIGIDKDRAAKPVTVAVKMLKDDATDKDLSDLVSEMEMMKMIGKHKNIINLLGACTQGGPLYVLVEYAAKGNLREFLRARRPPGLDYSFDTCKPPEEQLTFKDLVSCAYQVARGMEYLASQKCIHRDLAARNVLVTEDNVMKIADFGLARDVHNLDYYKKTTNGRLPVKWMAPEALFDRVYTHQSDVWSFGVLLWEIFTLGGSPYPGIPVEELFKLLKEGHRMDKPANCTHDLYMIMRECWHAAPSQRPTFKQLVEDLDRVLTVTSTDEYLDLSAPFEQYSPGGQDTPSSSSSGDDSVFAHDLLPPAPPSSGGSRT
Chain of UniProt P0ADV1 (whole entry, looked up): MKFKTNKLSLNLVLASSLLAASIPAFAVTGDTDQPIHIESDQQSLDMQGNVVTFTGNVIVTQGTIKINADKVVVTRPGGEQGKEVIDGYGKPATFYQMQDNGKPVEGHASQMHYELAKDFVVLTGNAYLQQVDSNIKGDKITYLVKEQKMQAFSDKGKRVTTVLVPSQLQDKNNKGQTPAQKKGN
Chain of UniProt A0A109QYD3 (whole entry, looked up): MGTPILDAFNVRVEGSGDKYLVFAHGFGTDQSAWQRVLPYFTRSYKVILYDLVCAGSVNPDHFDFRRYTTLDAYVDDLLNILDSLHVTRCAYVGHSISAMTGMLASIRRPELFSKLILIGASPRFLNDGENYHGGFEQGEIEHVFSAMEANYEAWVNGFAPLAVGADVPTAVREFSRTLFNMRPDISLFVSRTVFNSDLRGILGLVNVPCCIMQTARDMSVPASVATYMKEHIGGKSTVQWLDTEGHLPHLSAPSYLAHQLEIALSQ
Chain of UniProt Q460N5 (whole entry, looked up): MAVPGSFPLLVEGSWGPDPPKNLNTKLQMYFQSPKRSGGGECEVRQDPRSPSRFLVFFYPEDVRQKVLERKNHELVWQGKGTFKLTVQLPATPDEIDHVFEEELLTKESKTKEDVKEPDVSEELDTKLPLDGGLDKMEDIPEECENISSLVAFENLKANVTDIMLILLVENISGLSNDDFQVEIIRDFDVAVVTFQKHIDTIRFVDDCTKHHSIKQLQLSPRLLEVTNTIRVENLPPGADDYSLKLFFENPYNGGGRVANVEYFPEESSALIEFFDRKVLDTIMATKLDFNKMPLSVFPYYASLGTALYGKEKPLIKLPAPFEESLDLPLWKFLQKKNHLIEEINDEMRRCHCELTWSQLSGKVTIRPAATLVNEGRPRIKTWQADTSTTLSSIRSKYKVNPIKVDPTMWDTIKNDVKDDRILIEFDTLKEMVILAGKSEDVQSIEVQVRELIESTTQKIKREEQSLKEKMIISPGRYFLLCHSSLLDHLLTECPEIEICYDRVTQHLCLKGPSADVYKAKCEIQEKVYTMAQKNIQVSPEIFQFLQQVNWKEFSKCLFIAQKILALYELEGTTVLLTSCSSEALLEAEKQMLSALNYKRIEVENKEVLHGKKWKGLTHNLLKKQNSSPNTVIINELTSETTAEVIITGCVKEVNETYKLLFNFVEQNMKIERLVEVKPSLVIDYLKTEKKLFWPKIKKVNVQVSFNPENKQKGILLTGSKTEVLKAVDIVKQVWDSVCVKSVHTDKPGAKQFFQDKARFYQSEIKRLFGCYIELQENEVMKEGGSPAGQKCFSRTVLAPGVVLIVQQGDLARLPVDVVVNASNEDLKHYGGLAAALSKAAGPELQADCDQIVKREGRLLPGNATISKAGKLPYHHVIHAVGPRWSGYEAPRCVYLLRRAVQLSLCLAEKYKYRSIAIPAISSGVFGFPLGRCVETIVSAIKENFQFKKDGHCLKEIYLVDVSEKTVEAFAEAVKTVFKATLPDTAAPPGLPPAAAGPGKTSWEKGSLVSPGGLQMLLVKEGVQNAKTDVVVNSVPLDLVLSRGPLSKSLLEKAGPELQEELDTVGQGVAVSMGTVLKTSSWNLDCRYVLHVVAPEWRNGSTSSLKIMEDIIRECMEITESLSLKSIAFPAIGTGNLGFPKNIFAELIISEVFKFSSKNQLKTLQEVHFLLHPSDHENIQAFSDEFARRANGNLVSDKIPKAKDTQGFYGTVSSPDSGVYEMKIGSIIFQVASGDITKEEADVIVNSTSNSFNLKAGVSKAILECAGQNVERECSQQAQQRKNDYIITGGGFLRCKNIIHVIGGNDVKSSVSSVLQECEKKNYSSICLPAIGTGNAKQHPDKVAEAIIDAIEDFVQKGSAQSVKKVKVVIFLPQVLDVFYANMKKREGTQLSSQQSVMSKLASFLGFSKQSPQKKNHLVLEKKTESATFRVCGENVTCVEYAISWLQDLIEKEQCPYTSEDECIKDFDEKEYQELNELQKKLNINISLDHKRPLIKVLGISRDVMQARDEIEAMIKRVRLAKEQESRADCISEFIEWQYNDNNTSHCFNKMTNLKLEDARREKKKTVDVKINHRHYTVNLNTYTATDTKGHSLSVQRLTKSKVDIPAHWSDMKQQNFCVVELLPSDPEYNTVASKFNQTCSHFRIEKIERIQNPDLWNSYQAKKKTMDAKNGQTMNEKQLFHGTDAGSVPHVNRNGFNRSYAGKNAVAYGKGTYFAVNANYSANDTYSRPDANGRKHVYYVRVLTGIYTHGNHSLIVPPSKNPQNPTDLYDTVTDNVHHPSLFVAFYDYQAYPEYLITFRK
Chain of UniProt Q9GZT9 (whole entry, looked up): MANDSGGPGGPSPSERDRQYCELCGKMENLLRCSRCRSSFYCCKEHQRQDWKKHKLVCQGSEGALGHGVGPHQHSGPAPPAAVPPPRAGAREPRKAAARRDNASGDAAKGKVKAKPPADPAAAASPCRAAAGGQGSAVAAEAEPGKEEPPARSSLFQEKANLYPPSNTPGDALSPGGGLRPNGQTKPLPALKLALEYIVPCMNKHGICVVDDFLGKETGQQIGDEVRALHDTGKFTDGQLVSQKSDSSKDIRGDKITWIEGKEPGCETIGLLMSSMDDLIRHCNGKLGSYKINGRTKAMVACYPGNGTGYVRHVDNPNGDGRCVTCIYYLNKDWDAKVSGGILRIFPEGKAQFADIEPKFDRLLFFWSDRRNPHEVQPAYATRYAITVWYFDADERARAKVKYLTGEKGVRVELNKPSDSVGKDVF

Structure (SMILES) = CCCS(=O)(=O)N1CCN(Cc2ccc(NC(=O)c3ccc(-c4cc(NC(=O)C5CC5)ccc4OC(F)(F)F)cc3)cc2)CC1; target = Genome polyprotein, NS5A domain 1 (Hepatitis C virus genotype 1b, UniProt Q9WMX2, Y2065H); Kd = > 1 µM
Structure (SMILES) = CC[C@H](C)[C@@H]1NC(=O)[C@H](CC(C)C)NC(=O)[C@H](CCC(=O)O)NC(=O)CNC(=O)CNC(=O)[C@@H](NC(=O)[C@@H](NC(=O)[C@H](CCC(N)=O)NC(=O)[C@H](CC(C)C)NC(=O)[C@H](CCC(N)=O)NC(=O)[C@H](Cc2c[nH]cn2)NC(=O)[C@@H](N)[C@@H](C)O)C(C)C)CSSC[C@@H]2NC(=O)[C@@H](NC(=O)[C@H](C)NC(=O)[C@H](CC(=O)O)NC(=O)[C@H](C)NC(=O)[C@H](CC(C)C)NC(=O)CN)CSSC[C@H](NC(=O)[C@H](CCC(=O)O)NC(=O)[C@H](CC(N)=O)NC(=O)[C@H](CCCCN)NC2=O)C(=O)N[C@@H](CC(=O)O)C(=O)N[C@@H](CCC(=O)O)C(=O)N[C@@H](CC(N)=O)C(=O)N[C@@H](CCC(=O)O)C(=O)N[C@@H](CC(C)C)C(=O)N[C@@H](CC(=O)O)C(=O)N[C@@H](CCCNC(=N)N)C(=O)N[C@@H](Cc2ccc(O)cc2)C(=O)N[C@H](C(=O)N[C@@H](CC(N)=O)C(N)=O)CSSC[C@@H](C(=O)NCC(=O)N[C@@H](CC(=O)O)C(=O)N[C@@H](CCCNC(=N)N)C(=O)NCC(=O)N[C@H](C(=O)N[C@@H](Cc2ccc(O)cc2)C(=O)N[C@H](C(=O)N2CCC[C@H]2C(=O)N2CCC[C@H]2C(=O)N[C@@H](CCCNC(=N)N)C(=O)N[C@@H](CCCNC(=N)N)C(=O)O)[C@@H](C)O)C(C)C)NC(=O)[C@H](Cc2c[nH]cn2)NC(=O)[C@H](CCC(=O)O)NC(=O)[C@H]([C@@H](C)O)NC(=O)[C@H](CC(C)C)NC(=O)[C@H](C)NC(=O)[C@H](CC(=O)O)NC1=O; target = IGF1R (Homo sapiens, UniProt P08069); assay = ligand displacement, radioligand; Kd = 0.0286 µM
Structure (SMILES) = CC[C@H](C)[C@H](NC(=O)[C@H](CCCNC(=N)N)NC(=O)[C@H](CCCNC(=N)N)NC(=O)[C@@H]1CSSC[C@H](NC(=O)[C@H](C)NC(=O)[C@@H](NC(=O)[C@@H](NC(=O)[C@@H]2CCCN2C(=O)[C@@H](NC(=O)[C@@H]2CCCN2C(=O)[C@H](CCCCN)NC(=O)[C@H](CO)NC(=O)CN)C(C)C)[C@@H](C)CC)[C@@H](C)CC)C(=O)N[C@@H](CC(N)=O)C(=O)N[C@@H](CCCNC(=N)N)C(=O)N[C@@H](CCCCN)C(=O)N[C@@H]([C@@H](C)O)C(=O)NCC(=O)N[C@@H](CCCCN)C(=O)N1)C(=O)O; target = lptA (Escherichia coli, UniProt P0ADV1); assay = binding, BLI; Kd = 0.0008 µM
Structure (SMILES) = COc1ccc2cc1Oc1cc3c(cc1OC)CCN(C)C3Cc1ccc(cc1)Oc1c(O)c(OC)cc3c1C(C2)N(C)CC3 (stereo not shown); target = Glideosome-associated protein 50 (GAP50, Plasmodium falciparum, UniProt Q8I2X3); assay = surface plasmon resonance; Kd = < 75 µM
Structure (SMILES) = CC(=O)NC1C(O)CC(OC2C(O)C(CO)OC(OC3C(O)C(CO)OC(O)C3NC(C)=O)C2O)(C(=O)O)OC1C(O)C(O)CO (stereo not shown); target = Intermedilysin, domain 4 (Streptococcus intermedius, UniProt Q9LCB8); assay = binding; Kd = 0.568 µM
Structure (SMILES) = CC[C@H](C)[C@H](NC(=O)[C@H](Cc1ccccc1)NC(=O)[C@H](C)NC(=O)[C@H](CCCNC(=N)N)NC(=O)CNC(=O)CNC(=O)CNC(=O)CNC(=O)[C@H](CCSC)NC(=O)[C@H](Cc1ccc(O)cc1)NC(=O)[C@@H]1CCCN1C(=O)[C@@H](NC(=O)[C@H](C)NC(=O)[C@H](CO)NC(=O)[C@H](CO)NC(=O)[C@H](CC(C)C)NC(=O)[C@H](Cc1c[nH]c2ccccc12)NC(=O)[C@H](Cc1ccc(O)cc1)NC(=O)[C@H](Cc1c[nH]cn1)NC(=O)[C@H](CS)NC(=O)[C@H](CO)NC(=O)[C@H](Cc1ccc(O)cc1)NC(=O)[C@@H](N)CO)C(C)C)C(=O)N[C@@H](C)C(=O)N[C@@H](CO)C(=O)N[C@@H](CCCNC(=N)N)C(=O)N[C@@H](CCCNC(=N)N)C(=O)N[C@H](C(=O)N[C@@H](CCCNC(=N)N)C(=O)N[C@@H](CCCNC(=N)N)C(=O)N1CCC[C@H]1C(=O)O)[C@@H](C)CC; target = Streptavidin (Streptomyces avidinii, UniProt P22629); assay = binding; Kd = 0.01 µM
Structure (SMILES) = Nc1ncnc2c1ncn2[C@@H]1O[C@H](CO[P@](=O)(O)O[P@](=O)(O)OC[C@H]2O[C@@H](O)[C@H](O)[C@@H]2O)[C@@H](O)[C@H]1O; target = Protein mono-ADP-ribosyltransferase PARP14, macrodomain 2 (PARP14, Homo sapiens, UniProt Q460N5); scale = lower = stronger binding; Kd = 4.7 µM
Structure (SMILES) = CC(C)P(=S)(NP(=S)(C(C)C)C(C)C)C(C)C; target = Alpha-amylase (Bacillus subtilis, UniProt P00691); assay = fluorescence quenching; conditions = 310 K; Kd = 916 µM
Structure (SMILES) = CC1=C[C@H](O/C=C2/C(=O)O[C@H]3c4c(ccc(C)c4C)[C@H](O)[C@@H]23)OC1=O (racemic); target = RMS3 (Lathyrus oleraceus, UniProt A0A109QYD3); assay = binding, fluorescence; Kd = 137 µM
Structure (SMILES) = O=C(O)[C@]1(O)C[C@@H](O)[C@@H](O)[C@H](O)C1; target = aroD (Salmonella typhimurium, UniProt P58687, K170M); assay = binding; system = Salmonella enterica; Kd = 224 µM
Structure (SMILES) = CSCC[C@H](NC(=O)[C@H](CCC(N)=O)NC(=O)CNC(=O)[C@H](CCC(N)=O)NC(=O)[C@H](CO)NC(=O)[C@@H]1CCCN1C(=O)[C@H](CCSC)NC(=O)[C@@H](NC(=O)[C@H](CC(C)C)NC(=O)[C@H](CO)NC(=O)[C@H](CC(C)C)NC(=O)[C@@H](NC(=O)[C@@H](NC(=O)[C@H](CO)NC(=O)[C@@H](NC(=O)[C@H](CCCCN)NC(=O)[C@H](CO)NC(=O)[C@@H](NC(=O)[C@H](CO)NC(=O)[C@H](CCC(N)=O)NC(=O)[C@H](C)NC(=O)[C@H](CO)NC(=O)[C@H](CO)NC(=O)[C@H](Cc1ccc(O)cc1)NC(=O)[C@@H]1CCCN1C(=O)[C@@H](NC(=O)[C@H](CO)NC(=O)[C@@H](NC(=O)[C@@H]1CCCN1C(=O)[C@H](Cc1ccc(O)cc1)NC(=O)[C@@H](NC(=O)[C@H](CCCNC(=N)N)NC(=O)CNC(=O)CNC(=O)[C@@H]1CCCN1C(=O)[C@H](C)NC(=O)[C@@H]1CCCN1C(=O)[C@@H](NC(=O)[C@@H]1CCCN1C(=O)[C@@H](NC(=O)[C@@H]1CCCN1C(=O)[C@H](CCC(N)=O)NC(=O)[C@H](CO)NC(=O)[C@H](CCSC)NC(=O)[C@@H](N)CCC(=O)O)[C@@H](C)O)[C@@H](C)O)C(C)C)C(C)C)C(C)C)[C@@H](C)O)[C@@H](C)O)C(C)C)[C@@H](C)O)C(C)C)C(=O)N[C@H](C(=O)O)C(C)C; target = MAPK11 (Homo sapiens, UniProt Q15759); assay = binding, isothermal titration calorimetry; conditions = 25 °C; Kd = 1.5 µM
Structure (SMILES) = CC[C@H](C)[C@@H]1NC(=O)[C@H](CCCNC(=N)N)NC(=O)[C@H](CO)NC(=O)[C@H](CC(C)C)NC(=O)[C@H](Cc2ccc(O)cc2)NC(=O)[C@H](Cc2ccccc2)NC(=O)[C@H]([C@@H](C)O)NC(=O)[C@H](CCCNC(=N)N)NC(=O)[C@@H]2CCCN2C(=O)[C@H](CC(=O)O)NC(=O)[C@H](Cc2c[nH]c3ccccc23)NC(=O)[C@H](C(C)C)NC(=O)[C@@H](Cc2ccc(O)cc2)NC(=O)CSC[C@@H](C(N)=O)NC1=O; target = Egl nine homolog 1 (EGLN1, Homo sapiens, UniProt Q9GZT9); assay = binding, BLI; Kd = 0.00017 µM
Structure (SMILES) = N=C(N)NCCC[C@H](NC(=O)[C@H](CS)NC(=O)[C@H](Cc1ccc(O)cc1)NC(=O)[C@H](Cc1c[nH]c2ccccc12)NC(=O)[C@H](CCCNC(=N)N)NC(=O)[C@H](Cc1c[nH]c2ccccc12)NC(=O)[C@H](Cc1c[nH]cn1)NC(=O)CNC(=O)CN)C(=O)NCC(=O)NCC(=O)N[C@@H](CCCCN)C(N)=O; target = HCV IV RNA; assay = fluorescein-labelled RNA titration; conditions = 1 mM TCEP; Kd = 12 ± 1 µM
Structure (SMILES) = CC(=O)N[C@@H](C)C(=O)N[C@@H](C)C(=O)N1CCC[C@H]1C(=O)N1CCC[C@H]1C(=O)N[C@@H](CCCCN)C(=O)N[C@@H](CCCCN)C(=O)N1CCC[C@H]1C(=O)N1CCC[C@H]1C(=O)N[C@@H](CCCNC(=N)N)C(=O)N1CCC[C@H]1C(=O)NCC(=O)N[C@@H](C)C(=O)N1CCC[C@H]1C(=O)NCC(N)=O; target = Enhancer of filamentation 1, SH3 domain (NEDD9, Homo sapiens, UniProt Q14511); assay = binding, isothermal titration calorimetry; conditions = 25 °C; Kd = ~14 µM
Structure (SMILES) = CC[C@H](C)[C@H](N)C(=O)N[C@@H](CC(N)=O)C(=O)N[C@@H](CCCCN)C(=O)N[C@@H](CCC(N)=O)C(=O)NCC(=O)N[C@@H](CC(=O)O)C(=O)N[C@H](C(=O)N[C@H](C(=O)N[C@H](C(=O)N[C@@H](CC(C)C)C(=O)N[C@@H](CO)C(=O)N[C@@H](CC(N)=O)C(=O)NCC(=O)N[C@@H](CC(N)=O)C(=O)N[C@H](C(=O)N[C@@H](CCC(N)=O)C(=O)N[C@@H](CC(C)C)C(=O)N[C@H](C(N)=O)[C@@H](C)O)[C@@H](C)O)C(C)C)[C@@H](C)O)C(C)C; target = Leishmania secreted acid phosphatase; assay = surface plasmon resonance; conditions = pH 6.5, 25 °C; Kd = 0.0156 ± 0.00049 µM
Structure (SMILES) = CSCC[C@H](NC(C)=O)C(=O)N[C@H](C(=O)N[C@@H](Cc1ccc(O)cc1)C(=O)N[C@@H](CCCNC(=N)N)C(=O)N[C@H]1CSCc2cc3cc(c2)CSC[C@H](NC(=O)[C@H](Cc2ccc(O)cc2)NC(=O)[C@@H]2CCCN2C1=O)C(=O)N[C@@H](CC(C)C)C(=O)N[C@@H](Cc1ccc(O)cc1)C(=O)N[C@@H](CC(C)C)C(=O)N[C@H](C(=O)N[C@@H](CC(C)C)C(=O)N[C@@H](CC(C)C)C(=O)N[C@H](C(=O)NCC(=O)N[C@@H](CO)C(=O)NCC(=O)N[C@@H](CO)C(=O)NCC(=O)N[C@@H](CO)C(=O)N[C@@H](CC(=O)O)C(=O)N[C@@H](Cc1ccc(O)cc1)C(=O)N[C@@H](CCCCN)C(=O)N[C@@H](CC(=O)O)C(=O)N[C@@H](CC(=O)O)C(=O)N[C@@H](CC(=O)O)C(=O)N[C@@H](CC(=O)O)C(=O)N[C@@H](CCCCN)C(N)=O)[C@@H](C)O)CSC3)C(C)C; target = FGFR3 (Homo sapiens, UniProt P22607); assay = binding, BLI; Kd = 0.0075 µM

A few entries again:
Structure (SMILES) = COc1ccc2cc1Oc1cc3c(cc1OC)CCN(C)C3Cc1ccc(cc1)Oc1c(O)c(OC)cc3c1C(C2)N(C)CC3 (stereo not shown); target = Glideosome-associated protein 50 (GAP50, Plasmodium falciparum, UniProt Q8I2X3); assay = surface plasmon resonance; Kd = < 75 µM
Structure (SMILES) = Nc1ncnc2c1ncn2[C@@H]1O[C@H](CO[P@](=O)(O)O[P@](=O)(O)OC[C@H]2O[C@@H](O)[C@H](O)[C@@H]2O)[C@@H](O)[C@H]1O; target = Protein mono-ADP-ribosyltransferase PARP14, macrodomain 2 (PARP14, Homo sapiens, UniProt Q460N5); scale = lower = stronger binding; Kd = 4.7 µM
